# Published values collected from several papers.
# Numbered parts are unrelated; each lists some results of a single study. Changes are numbered by the printed parent chain.

# Set 1 — target: JDP2, bZIP domain (human); technique: DHFR protein complementation; sample: yeast; baseline: wild-type JUN-FOS pair; direction: higher = stronger binding
# Notes: single substitutions, most at no-binding floor
# Starting sequence: JUN, bZIP domain (human); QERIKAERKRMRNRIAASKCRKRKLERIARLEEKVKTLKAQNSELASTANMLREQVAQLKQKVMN; partner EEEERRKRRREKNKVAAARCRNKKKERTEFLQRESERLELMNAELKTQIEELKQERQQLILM
Substitution,binding fitness [natural log]
R53Y,0.188
S43F,0.254
K39M,0.203
A40F,0.301
E33M,0.239
R53V,0.258
M51C,0.233
M51L,0.301
K34M,0.249
S47C,0.29
L31V,0.167
Q41S,-1.25
E54F,0.124
E33R,0.242
L31Q,0.143
R30T,0.399
L45N,-0.0886
V35T,0.179
K34R,0.36
V35F,0.182
K39H,0.295

# Set 2 — technique: RNAcompete; molecule type: RNA; sample: in vitro; tested at: 20 nM; notes: 7-mer, probes averaged, single round; baseline: mean of 7-mers; direction: higher = stronger binding
# Target: PABPC1L2, full length, GST fusion (mouse, UniProt A0ABA7IW68)
# Construct (chain): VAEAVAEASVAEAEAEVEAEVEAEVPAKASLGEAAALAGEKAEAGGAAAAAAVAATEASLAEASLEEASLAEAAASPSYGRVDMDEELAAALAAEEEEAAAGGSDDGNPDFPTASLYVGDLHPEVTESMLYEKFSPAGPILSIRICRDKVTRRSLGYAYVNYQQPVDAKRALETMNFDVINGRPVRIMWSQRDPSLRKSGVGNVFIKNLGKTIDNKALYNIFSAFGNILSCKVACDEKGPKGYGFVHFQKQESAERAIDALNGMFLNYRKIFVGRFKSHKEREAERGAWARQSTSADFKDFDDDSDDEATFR
Sequence,7-mer Z-score
UCUUAAC,-0.389
ACCCGCA,-0.168
CAGAGUA,0.0207
GACGUGG,-0.00289
UUAGCCU,-0.353
UUAGGCG,-0.0174
GCAAUAA,0.443
CGUCGCG,-0.452
UCCGCGA,-0.291
GUAAGGG,0.204
CAUGCAC,-0.012
CAAGACC,0.149
CCAUGUU,-0.336
GUUUGAC,-0.403
CCAACGU,-0.121
CCCAAGA,-0.148
CAAAAUG,1.39
AUGAUAC,-0.0953
GGUUUUU,-0.271
GGCUCGC,-0.313
AGGCAGG,0.283
UCUCUAU,-0.364
GACCUGC,-0.262

# Set 3 — technique: DHFR PCA, deep sequencing; sample: yeast; with: (+)-ABA 710 µM; baseline: wild-type fitted maximum; direction: higher = stronger binding
# Target: ABI1, truncated, D143A, DHFR fusion (Arabidopsis thaliana)
# Notes: methotrexate growth selection, single substitutions
# Starting sequence: PYL1, truncated, DHFR fusion (Arabidopsis thaliana); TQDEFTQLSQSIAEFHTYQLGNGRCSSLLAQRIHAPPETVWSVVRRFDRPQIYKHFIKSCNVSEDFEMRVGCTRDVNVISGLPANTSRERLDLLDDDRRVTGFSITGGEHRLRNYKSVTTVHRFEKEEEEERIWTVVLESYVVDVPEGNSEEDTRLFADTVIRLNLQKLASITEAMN
Substitution,relative binding score [%]
E64Q,107
E147D,106
P146M,64.8
D48S,88.6
W41M,1.92
N22V,104
V44Y,9.52
I33Y,26.2
R155F,60.8
M176P,105
E125L,107
Q19S,105

# Set 4 — target: CCNE1, cyclin fold, Cln2 fusion (human); technique: yeast growth competition, sequencing; sample: yeast; notes: weak parent motif; baseline: not given; direction: higher = stronger binding
# Starting sequence: ORC1 docking peptide (human); PRARKRLELGNLG
Substitution,normalised enrichment score
L12T,0.0913
G13Y,-0.236
K5T,0.33
A3N,0.904
P1Y,-0.0972
G10R,-0.08
E8H,0.0867
R2C,0.154
R2E,1.21
R6Q,0.522
R4A,0.185
E8A,0.581
L12Y,0.188
N11Q,-0.893
R2M,0.56
R4T,0.876
R4M,0.0914
G13Q,0.097
L9F,2.25
P1H,0.357
E8W,1.3
L7E,0.338
